Assay results of several laboratories.
Each line is one published result; not all experiments were run side by side. Several values in a cell are separate wells, animals, samples, runs or records. Numbers after ± are the reported error.

Structure (SMILES) | tested on | test | system | conditions | scale | quantity | value
O=C[C@H](C[C@@H]1CCNC1=O)NC(=O)[C@H](Cc1cccc(F)c1)NC(=O)c1cc2ccccc2[nH]1 | A549 | cell growth or viability, MTT | – | 24 h | – | CC50 | > 100 µM
CCCN1CCC=C(c2cc(-c3ccc(C)cc3)no2)C1 | J774A.1 | alamarBlue | – | – | – | CC50 | 48.8 ± 12.5 µM
CCc1c(C(=O)C(N)=O)c2c(OCC(=O)O)cccc2n1Cc1ccccc1 | C2C12 | – | – | 100 µM, without venom, unit not given | relative to: cells alone (=100) | viability | 97 and 95 and 99.1
CCC(CC)COC(=O)[C@H](C)N[P@](=O)(OC[C@H]1O[C@@](C#N)(c2ccc3c(N)ncnn23)[C@H](O)[C@@H]1O)Oc1ccccc1 | Vero | cell morphology | – | 5 (unit not given) | – | minimum cytotoxic concentration | 80 µM
CC[C@H](C)[C@H](NC(=O)[C@H](CC(C)C)NC(=O)[C@H](Cc1c[nH]c2ccccc12)NC(=O)[C@H](CCC(N)=O)NC(=O)[C@@H](NC(=O)[C@H](Cc1ccccc1)NC(=O)[C@H](C)NC(=O)[C@H](CCCCNC(=O)COCCOCCNC(=O)COCCOCCNC(=O)CC[C@H](NC(=O)CCCCCCCCCCCCCCCCCCC(=O)O)C(=O)O)NC(=O)[C@H](CCC(N)=O)NC(=O)[C@H](C)NC(=O)[C@@H](NC(=O)[C@H](CCCCN)NC(=O)[C@H](CC(=O)O)NC(=O)[C@H](CC(C)C)NC(=O)C(C)(C)NC(=O)[C@@H](NC(=O)[C@H](CO)NC(=O)[C@H](Cc1ccc(O)cc1)NC(=O)[C@H](CC(=O)O)NC(=O)[C@H](CO)NC(=O)[C@@H](NC(=O)[C@H](Cc1ccccc1)NC(=O)[C@@H](NC(=O)CNC(=O)[C@H](CCC(=O)O)NC(=O)C(C)(C)NC(=O)[C@@H](N)Cc1ccc(O)cc1)[C@@H](C)O)[C@@H](C)O)[C@@H](C)CC)[C@@H](C)CC)C(C)C)C(=O)N[C@@H](C)C(=O)NCC(=O)NCC(=O)N1CCC[C@H]1C(=O)N[C@@H](CO)C(=O)N[C@@H](CO)C(=O)NCC(=O)N[C@@H](C)C(=O)N1CCC[C@H]1C(=O)N1CCC[C@H]1C(=O)N1CCC[C@H]1C(=O)N[C@@H](CO)C(N)=O | – | refers to: anti-drug antibodies | patients with type 2 diabetes | 0.5 mg, postbaseline, proof of concept | – | subjects with treatment-emergent ADA | 0%
CCN(CC)N=O | – | – | male Wistar rats | ip, 100 mg/kg weekly, 4 injections, hepatic fibrosis model | – | body weight | 301 ± 4 g
Cn1cnc(Cn2c(=O)[nH]/c(=N\c3cc4cn(C)nc4cc3Cl)n(Cc3cc(F)c(F)cc3F)c2=O)n1 | – | – | human, severe renal impairment | oral, 375 mg, treatment-related decreased GFR, Mild severity | – | patients with adverse event | 0%
CCC(CC)COC(=O)[C@H](C)N[P@](=O)(OC[C@H]1O[C@@](C#N)(c2ccc3c(N)ncnn23)[C@H](O)[C@@H]1O)Oc1ccccc1 | Vero | cell morphology, microscopy | – | 5 (unit not given) | – | minimum cytotoxic concentration | > 40 µM
CC(C)(C)[C@H](NC(=O)C(F)(F)F)C(=O)N1C[C@H]2[C@@H]([C@H]1C(=O)N[C@H](C#N)C[C@@H]1CCNC1=O)C2(C)C | Caco-2 | – | – | 48 h | – | CC50 | 213 µM
CC(C)N1CCN(c2ccc(OCC3COC(Cn4cncn4)(c4ccc(Cl)cc4Cl)O3)cc2)CC1 (stereo not drawn) | J774A.1 | alamarBlue | – | – | – | CC50 | 84.6 ± 15.6 µM
Nc1ncnc2c([C@@H]3N[C@H](CO)[C@@H](O)[C@H]3O)c[nH]c12 | Venezuelan equine encephalitis virus | viral replication | HeLa, SH3 | 50 µM | – | inhibition | 1.3%
CC(C)(C)OC(=O)NCCOc1ccc(Cl)cc1C(=O)NCC(=O)Nc1ccc([N+](=O)[O-])cc1Cl | Vero E6 | – | – | 48 h | – | CC50 | 342 µM
Cn1cnc(Cn2c(=O)[nH]/c(=N\c3cc4cn(C)nc4cc3Cl)n(Cc3cc(F)c(F)cc3F)c2=O)n1 | – | – | healthy Japanese adults, plasma | oral, 250 mg, day 5, multiple dosing, fasted, together with: prednisolone | – | Cmax | 52.3 µg/mL
NCCOc1ccc(Cl)cc1C(=O)NCC(=O)Nc1ccc([N+](=O)[O-])cc1Cl | Vero E6 | – | – | 48 h | – | CC50 | 53.1 µM
CCC(CC)COC(=O)[C@H](C)N[P@](=O)(OC[C@H]1O[C@@](C#N)(c2ccc3c(N)ncnn23)[C@H](O)[C@@H]1O)Oc1ccccc1 | Vero | – | – | 24 h | – | CC50 | > 50 µM
